Experimental data gathered from unrelated publications.
Every numbered part comes from another study and shows a few of its results, in no order.
UniProt Q07912, sequence (whole entry, looked up): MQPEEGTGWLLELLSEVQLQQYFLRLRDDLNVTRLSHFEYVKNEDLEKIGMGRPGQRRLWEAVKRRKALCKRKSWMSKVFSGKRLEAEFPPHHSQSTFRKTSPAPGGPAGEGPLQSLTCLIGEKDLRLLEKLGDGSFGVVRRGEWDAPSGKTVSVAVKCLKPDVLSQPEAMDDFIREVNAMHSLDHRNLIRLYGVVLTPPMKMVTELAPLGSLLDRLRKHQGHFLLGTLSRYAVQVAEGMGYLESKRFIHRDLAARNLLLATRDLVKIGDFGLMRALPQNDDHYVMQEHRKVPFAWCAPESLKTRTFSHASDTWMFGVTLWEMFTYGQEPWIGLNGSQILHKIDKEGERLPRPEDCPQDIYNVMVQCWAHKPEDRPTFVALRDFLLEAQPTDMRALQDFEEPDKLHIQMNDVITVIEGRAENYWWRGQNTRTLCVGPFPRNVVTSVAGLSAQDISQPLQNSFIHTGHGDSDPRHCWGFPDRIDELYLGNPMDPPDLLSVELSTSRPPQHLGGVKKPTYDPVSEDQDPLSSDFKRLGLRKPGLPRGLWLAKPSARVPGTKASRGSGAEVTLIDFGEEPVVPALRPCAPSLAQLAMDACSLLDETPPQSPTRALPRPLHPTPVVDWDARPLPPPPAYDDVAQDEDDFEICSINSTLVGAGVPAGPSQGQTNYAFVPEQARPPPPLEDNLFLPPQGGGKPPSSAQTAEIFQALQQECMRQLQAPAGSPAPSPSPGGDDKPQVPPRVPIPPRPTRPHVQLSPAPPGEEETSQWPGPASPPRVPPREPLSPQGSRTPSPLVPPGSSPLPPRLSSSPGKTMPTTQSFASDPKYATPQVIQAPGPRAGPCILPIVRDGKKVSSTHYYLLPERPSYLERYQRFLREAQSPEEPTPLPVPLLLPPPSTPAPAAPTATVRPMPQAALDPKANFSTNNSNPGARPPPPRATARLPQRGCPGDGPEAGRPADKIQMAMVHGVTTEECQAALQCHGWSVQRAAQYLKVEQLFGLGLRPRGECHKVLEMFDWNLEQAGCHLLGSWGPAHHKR

Block 1
Target: Prothrombin, mature alpha-thrombin (F2, Homo sapiens, UniProt P00734)
Method: aptamer microarray, sandwich
Molecule type: DNA with 2'F-ANA
Matrix: in vitro
Tested at: 200 nM
Notes: whole 15-mer aptamer, many near background
Added: Cy3 exosite-II aptamer, 400 nM
Direction: higher = stronger binding
Strand: GGTTGGTGTGGTTGG
| Modification | mean fluorescence intensity [a.u.] |
| --- | --- |
| 2'F-ANA at 1 3 4 5 6 10 14 | 49.1 |
| 2'F-ANA at 1 2 3 7 8 9 12 15 | 635 |
| 2'F-ANA at 2 4 9 10 12 | 198 |
| 2'F-ANA at 3 4 5 6 10 11 13 14 15 | 58.6 |
| 2'F-ANA at 2 3 6 11 13 15 | 545 |
| 2'F-ANA at 3 8 9 | 1220 |
| 2'F-ANA at 1 2 5 7 9 10 15 | 45.8 |
| 2'F-ANA at 7 8 10 11 12 13 14 15 | 103 |

Block 2
Target: Fragile X messenger ribonucleoprotein 1, C-terminal low-complexity region (Fmr1, Mus musculus, UniProt P35922)
Method: RNA Bind-n-Seq
Molecule type: RNA
Matrix: in vitro
Tested at: 200 nM
Notes: whole 134-nt RNA, ends assumed
Added: 150 mM LiCl
Relative to: input library
Direction: higher = stronger binding
Library: 7-deaza-guanosine replaces G
Shared flanks, not repeated: GGGAGUUCUACAGUCCGACGAUC … UGGAAUUCUCGGGUGUCAAGG
| Strand | log2 enrichment |
| --- | --- |
| UGUGCUACACAUCGUAUGUACCGAAUCGGGGAAAAAAAGGGGAAAAAGGGGAAAAAAAGGGGAAAGUAUUAUGUUACGCCGUUCGGAUCU | 1.16 |
| UUGACGAGGCCGGCCCGGGAGAUGAGACCACCGGCCAGGAAGUCAUUGUCAUUCAGGACACGGGCUUUUCUGUGAAGAUCCUCGCCCCUG | -2.28 |
| ACCAAAAAGGUGGGCAUCUUUGGGAAGUGGGGCAAGGGGGGGAUAGGGAGGGGGGUAACACUUUGGGAACAGGUGGUCCCAGGUCGUUUC | 1.15 |
| AGUCCUGUGCUACACAUCGUAUGUACCGAAUCGGGGCCCCGGGCCCCGGGCCCCGGGAAAGUAUUAUGUUACGCCGUUCGGAUCUGCACU | -3 |
| UGGGAGGUGGAUUUUGUUUAUUUUUUUAGCUCAUUUCCAGGGGUGGGAAUUUUUUUUUAAUAUGUGUCAUGAAUACAGUUGUUUUUGAAA | -0.14 |
| AAGUCCUGUGCUACACAUCGUAUGUACCGAAUCGGGGUUUGGGGUUUGGUUUGGGGAAAGUAUUAUGUUACGCCGUUCGGAUCUGCACUU | -1.26 |
| AGUCCUGUGCUACACAUCGUAUGUACCGAAUCGGAAAGGUUUUUUUGGAAAAAAAGGAAAGUAUUAUGUUACGCCGUUCGGAUCUGCACU | -2.65 |
| UUGUGGAAAGGAGGAGAACCCCUGCUGAAAUUCGAGAGGAGUUUGAGCGGCUGCAGAGAGAGAGAGAAGAGAGGAGAUUGCAGCAGCGAA | -0.895 |

Block 3
Target: Phosphate system positive regulatory protein PHO4, full length, GST-tagged (PHO4, Saccharomyces cerevisiae, UniProt P07270, residues 1-312)
Method: competition protein-binding microarray
Molecule type: double-stranded DNA, one strand shown
Matrix: in vitro
Tested at: 2 µM
Notes: whole 60-bp probe, lowest competitor level
Added: Cbf1 competitor, 0.05 µM
Direction: higher = stronger binding
Shared flanks, not repeated: … GTCTTGATTCGCTTGACGCTGCTG
Residues (chain): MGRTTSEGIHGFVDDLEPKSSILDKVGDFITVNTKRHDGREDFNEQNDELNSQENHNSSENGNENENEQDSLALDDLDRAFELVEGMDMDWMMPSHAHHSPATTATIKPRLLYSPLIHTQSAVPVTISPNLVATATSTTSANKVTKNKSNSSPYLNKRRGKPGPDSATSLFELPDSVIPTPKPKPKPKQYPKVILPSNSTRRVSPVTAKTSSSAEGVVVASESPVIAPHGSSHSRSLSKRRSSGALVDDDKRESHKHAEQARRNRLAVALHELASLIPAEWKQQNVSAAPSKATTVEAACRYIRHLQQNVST
| Strand | fluorescence intensity [a.u.] |
| --- | --- |
| TCTTCTTTTGGTTGGCATGCGTGTAGGCTTCAAGGT | 10300 |
| AAAGCGGTAATTTGGGTTGTGGGTGCAGATATCTAT | 4860 |
| ATAACCGCGCAATACCGCGTGCTGTATCGGCGTCCA | 11700 |
| AAATTACTAAGTTGTCAAGTGGGTGACGCCGTATGA | 4010 |
| AGATGAAGCTCTCACCACGCACCATTAAATGTAAAC | 7160 |
| CTTCTGTAAATTTGTCACGCTACTTGACGCGCCCCG | 5480 |
| CGCTGAGTACTTCCTCACCTGATCCAATCGATTGAC | 4020 |
| CTACATCGAGGTAAACGCGTGTCGGGGTGCAAGCAT | 9970 |

Mixed results
| Compound | target | assay | conditions | scale | measurement | value |
| --- | --- | --- | --- | --- | --- | --- |
| Cc1cc2ncc(-c3ccccc3)nc2cc1C | Activated CDC42 kinase 1 (TNK2, Homo sapiens, UniProt Q07912) | enzyme activity, inhibitor | 0.5 µM | relative to: control | remaining activity | 98.4% |

Repeated from above (block 3):
| Strand | fluorescence intensity [a.u.] |
| --- | --- |
| ATAACCGCGCAATACCGCGTGCTGTATCGGCGTCCA | 11700 |
| AGATGAAGCTCTCACCACGCACCATTAAATGTAAAC | 7160 |
| TCTTCTTTTGGTTGGCATGCGTGTAGGCTTCAAGGT | 10300 |
| CGCTGAGTACTTCCTCACCTGATCCAATCGATTGAC | 4020 |
